Experimental data collected from several papers.
Each numbered part is a random draw from the data of one study; scales do not carry over between parts.

Series 1 — technique: RNA Bind-n-Seq; form: RNA; matrix: in vitro; concentration: 365 nM; baseline: no-protein control; reading: higher = stronger binding; endpoint: RBNS enrichment (R)
Target: RNA binding protein fox-1 homolog 2, RRM domain, GST-SBP tag (RBFOX2, Homo sapiens, UniProt O43251-10, residues 100-194)
Setting: natural RNA segment, single round, ends assumed
Shared flanks, not repeated: GGGAGUUCUACAGUCCGACGAUC … UGGAAUUCUCGGGUGCCAA
Construct (chain): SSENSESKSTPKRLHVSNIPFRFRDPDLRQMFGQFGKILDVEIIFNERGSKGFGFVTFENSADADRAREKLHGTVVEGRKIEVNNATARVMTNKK
Oligonucleotide = UUUGAAAAUAGAAUAAAUAAUAAGAAUUUCCAAUUAAAUCAUGUCUGGUGCCAAUGUGCAAAACUUCCAUGUGUUUUUGUGAUUGGAGUUUAUUUCAUGGCUUUAUUCUA; result = 0.577
Oligonucleotide = AGCAGAAAAGCUCCCACCAUUUUCUUUUGAUGUGGUUUUAAAGUCUCACGUUCUCUAUAAUAGAAACAGCAGGUCUUGUCAGCUCCUUGUGUGGCUGAUGUGUCUGGAAA; result = 0.45
Oligonucleotide = CGUUCAGUUAAGUUUUUCCCUUCAUCUGGGCACUGAAGGGAUAUGUGAAACAAUGUUAACAUUUUUGGUAGUCUUCAACCAGGGAUUGUUUCUGUUUAACUUCUUAUAGG; result = 0.65
Oligonucleotide = GAUGUCCCUCCAGCCUCCUCCCCCUCCUCUGCUGGCUCUGGCAACAGAUCCUGGGAUAUGGUAAUUGUUUGGAUUUUCUUUCUUUCUGCAGUUGUGUGUGAAGAACAGGC; result = 0.416
Oligonucleotide = GACCCUGCCACUGCUUCUUGCCCUGAGGUUUGGAAGCUGAGAGUUAUAGAAGCCAAUUCACCAGGAGGUAAGACAUCCCAGGCUGACAUGGGCAAAUGAAAAGGGCUAUU; result = 0.502
Oligonucleotide = ACAGUUUACAGAACUCAUGUAACUUGUAGCUAUAAACAUUUUGUGCCAUUAAAGCUCUCACAAAACCGCCUGUCCAUAUAUCAUUUUGACUUCACUCUUGUUGACAAAAA; result = 0.381
Oligonucleotide = CUUUCUUCACAUUCCCACUCCCAUAUUUACACGGGUCACUCUGACUCAGACAGGUACUAUUUGUAAGUAGCAUAGACAGCAGGGGGGUGGGGUGGUCAACCUGUGUCCCC; result = 0.337
Oligonucleotide = CAGAUCUUACUCCACGUAUACUUUUUGGUUUGUGAAGGCAUCGGUUAAGGGCACAAAGACAGCCAUGGGGACAUUUAUGUAAAUACGUCUCUAAUUGCCACACUGCAGCU; result = 0.377

Series 2 — technique: RNA Bind-n-Seq; form: RNA; matrix: in vitro; concentration: 200 nM; setting: whole 134-nt RNA, ends assumed; together with: 150 mM LiCl; baseline: input library; reading: higher = stronger binding; endpoint: log2 enrichment; each molecule: 7-deaza-guanosine replaces G
Target: Fragile X messenger ribonucleoprotein 1, C-terminal low-complexity region (Fmr1, Mus musculus, UniProt P35922)
Shared flanks, not repeated: GGGAGUUCUACAGUCCGACGAUC … UGGAAUUCUCGGGUGUCAAGG
Oligonucleotide = GCAGGAAGUAAGAACAAAUGGAAAUGCUUCGGAUAGUGGCAGGGGUGGGGGUUGCUAAGGAAAGGGUGGGAUGGGAGUGGGUAAAGAGUU; result = 2.01
Oligonucleotide = UGGGAGGUGGAUUUUGUUUAUUUUUUUAGCUCAUUUCCAGGGGUGGGAAUUUUUUUUUAAUAUGUGUCGUGAAUAAAGUUGUUUUUGAAA; result = 0.428
Oligonucleotide = AACACUCAAACCACCAUCAAGCUUUUCCAGGAAUGCUGUCCUCAUUCCACUGACAGAGUUGUUCUUAUUGGAGGAAAACCCGAUAGGGUU; result = 1.19
Oligonucleotide = ACCAUGCAGGUGGGCAUCUUUGGGAAGUGGGGCAAGGGCGGGAUAGGGAGGGGGGUAACACUUUGGGAACAGGUGGUCCCAGGUCGUUUC; result = 1.01
Oligonucleotide = UCCUGUGCUACACAUCGUAUGUACCGAAUCGGGGAAAAAAGGGAAAAAAGGAAAAAAGGAAAGUAUUAUGUUACGCCGUUCGGAUCUGCA; result = 0.11
Oligonucleotide = CCUGUGCUACACAUCGUAUGUACCGAAUCGGGGAAAAAAAGGGGAAAAAGGGGUUUGGGGAAAGUAUUAUGUUACGCCGUUCGGAUCUGC; result = -0.635
Oligonucleotide = GUCCUGUGCUACACAUCGUAUGUACCGAAUCGGGAGGGAAAAAAAGGGAAAAAAAGGGAAAGUAUUAUGUUACGCCGUUCGGAUCUGCAC; result = 0.667
Oligonucleotide = AAGUCCUGUGCUACACAUCGUAUGUACCGAAUCGGUUUUUUUGGAAAAAAAGGAGGAAAGUAUUAUGUUACGCCGUUCGGAUCUGCACUU; result = -2.72

Series 3 — technique: protein binding microarray; form: double-stranded DNA, one strand shown; matrix: in vitro; concentration: not given; baseline: not given; reading: higher = stronger binding; endpoint: E-score
Target: Histone acetyltransferase KAT6A, both winged helices, GST fusion (KAT6A, Homo sapiens, UniProt Q92794, residues 1-181)
Setting: 8-mer, flanks averaged, mean of 2 arrays, mostly near background
Construct (chain): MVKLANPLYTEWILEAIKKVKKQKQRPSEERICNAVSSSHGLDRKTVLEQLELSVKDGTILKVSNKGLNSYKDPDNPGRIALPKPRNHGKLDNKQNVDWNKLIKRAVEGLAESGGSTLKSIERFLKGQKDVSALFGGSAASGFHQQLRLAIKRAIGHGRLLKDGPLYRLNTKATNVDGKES
Oligonucleotide = TACAGGAA; result = -0.0358
Oligonucleotide = AAACTGCA; result = -0.0999
Oligonucleotide = CACGCAGC; result = 0.162
Oligonucleotide = ACTTTACA; result = 0.081
Oligonucleotide = AATGTATA; result = -0.0639
Oligonucleotide = CTGGAACA; result = -0.171
Oligonucleotide = CAGAACCC; result = -0.00406
Oligonucleotide = CCTAAATA; result = -0.064
Oligonucleotide = TAAACTTA; result = -0.119
Oligonucleotide = AAGGTCAA; result = -0.119
Oligonucleotide = AACCTGGG; result = -0.0878
Oligonucleotide = GCGATACA; result = 0.0257
Oligonucleotide = ATTTCCTC; result = -0.0971
Oligonucleotide = CTAGCCAA; result = -0.02
Oligonucleotide = GACCTCGC; result = 0.144
Oligonucleotide = AAGAAATA; result = -0.189

Series 4 — target: human cyclin A2; technique: competitive growth deep sequencing; form: peptide; organism: Saccharomyces cerevisiae; strain: cyclin A2-Cln2 fusion strain; setting: peptide tiling library; reading: direction not given; endpoint: enrichment score
Sequence = DKYDEGLYRFNSLNDL; result = 0.596
Sequence = LENIEPLQVSFAVLSS; result = 1.13
Sequence = YLYLLLTQSLWCRV; result = -0.197
Sequence = NSMKELNFSHLPSNSV; result = 0.171
Sequence = ASVLSKPIFCFVKD; result = 0.411
Sequence = RQVRRDLFAF; result = -0.517
Sequence = AEHPKPSACRNLFGPV; result = 2.35
Sequence = QYQVVDDIVSKLVFDF; result = 0.303
Sequence = KVRRNLFNQELLSP; result = 1.97
Sequence = NEGVSNAVRRSLYIRD; result = -0.263
Sequence = SPPRGRRLFPPGPAGF; result = -0.0515
Sequence = DVSERGYVILPNDYFE; result = 0.41
Sequence = QNPCGSKACRRLFGPV; result = 1.4
Sequence = VKRLNFRSEEME; result = 0.413

Series 5 — technique: universal PBM; form: double-stranded DNA, one strand shown; matrix: in vitro; concentration: 600 nM; reading: higher = stronger binding; endpoint: E-score
Target: Sal-like protein 4, full length isoform A (SALL4, Homo sapiens, UniProt Q9UJQ4, residues 1-1053)
Sequence of UniProt Q9UJQ4 (whole entry, looked up): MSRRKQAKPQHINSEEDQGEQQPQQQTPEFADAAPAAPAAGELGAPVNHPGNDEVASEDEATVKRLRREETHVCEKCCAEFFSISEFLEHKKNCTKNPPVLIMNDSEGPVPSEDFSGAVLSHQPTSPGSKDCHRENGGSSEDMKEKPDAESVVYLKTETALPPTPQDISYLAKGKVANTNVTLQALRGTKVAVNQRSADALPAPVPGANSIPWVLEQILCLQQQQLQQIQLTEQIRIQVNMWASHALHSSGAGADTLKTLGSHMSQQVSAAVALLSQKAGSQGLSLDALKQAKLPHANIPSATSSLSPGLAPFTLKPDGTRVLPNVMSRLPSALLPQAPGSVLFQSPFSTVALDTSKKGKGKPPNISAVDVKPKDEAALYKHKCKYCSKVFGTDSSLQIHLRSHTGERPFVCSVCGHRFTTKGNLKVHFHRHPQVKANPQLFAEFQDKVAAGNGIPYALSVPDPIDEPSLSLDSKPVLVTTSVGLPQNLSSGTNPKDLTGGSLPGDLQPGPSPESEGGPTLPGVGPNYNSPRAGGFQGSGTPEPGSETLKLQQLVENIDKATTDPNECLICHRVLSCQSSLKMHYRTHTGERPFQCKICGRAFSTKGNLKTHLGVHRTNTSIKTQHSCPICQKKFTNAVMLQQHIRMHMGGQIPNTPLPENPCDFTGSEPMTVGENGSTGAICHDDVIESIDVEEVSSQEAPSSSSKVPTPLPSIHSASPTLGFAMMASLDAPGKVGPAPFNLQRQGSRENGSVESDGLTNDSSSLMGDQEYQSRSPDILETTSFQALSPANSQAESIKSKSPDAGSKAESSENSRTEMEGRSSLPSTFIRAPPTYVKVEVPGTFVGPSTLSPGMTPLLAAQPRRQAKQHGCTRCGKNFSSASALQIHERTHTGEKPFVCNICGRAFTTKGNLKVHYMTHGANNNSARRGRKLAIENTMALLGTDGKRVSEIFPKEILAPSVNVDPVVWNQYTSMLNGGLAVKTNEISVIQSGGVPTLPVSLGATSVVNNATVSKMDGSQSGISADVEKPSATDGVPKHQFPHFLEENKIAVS
Setting: 8-mer, flanks averaged, mean of replicates
Oligonucleotide = GCATTGTA; result = 0.134
Oligonucleotide = ATCCGCAC; result = -0.0786
Oligonucleotide = CGTGCAGC; result = -0.235
Oligonucleotide = GGCTTGCA; result = -0.109
Oligonucleotide = TAATTGCA; result = 0.215
Oligonucleotide = CACTACTA; result = 0.0279
Oligonucleotide = GTATTGGA; result = 0.0535
Oligonucleotide = AATGTCGA; result = 0.146
Oligonucleotide = AATGGCTC; result = -0.0657
Oligonucleotide = ATGGAGTA; result = 0.141
Oligonucleotide = ACACGGGA; result = -0.193
Oligonucleotide = AAGCCTGT; result = 0.00866
Oligonucleotide = ACTCCGAT; result = -0.0316
Oligonucleotide = GGGTACAC; result = -0.171
Oligonucleotide = AACAAAGA; result = 0.192
Oligonucleotide = AGGTTGAA; result = 0.113
Oligonucleotide = GATCAACA; result = 0.105

For quick reference, copied from above (series 3):
Oligonucleotide = CACGCAGC; result = 0.162
Oligonucleotide = ACTTTACA; result = 0.081
Oligonucleotide = AATGTATA; result = -0.0639
Oligonucleotide = CTGGAACA; result = -0.171
Oligonucleotide = CAGAACCC; result = -0.00406
Oligonucleotide = CCTAAATA; result = -0.064
Oligonucleotide = TAAACTTA; result = -0.119
Oligonucleotide = AAGGTCAA; result = -0.119
Oligonucleotide = AACCTGGG; result = -0.0878
Oligonucleotide = GCGATACA; result = 0.0257
Oligonucleotide = ATTTCCTC; result = -0.0971
